Measurements collected from several papers.
Lines come from different studies, so protocols differ.

Compound	assay	system	conditions	quantity	result
CC(C)(C)c1cc(C(C)(C)C)c(NC(=O)c2c[nH]c3ccccc3c2=O)cc1O		human cystic fibrosis patients	oral, twice-daily dosing, with: tezacaftor once daily	time to steady state	3 to 5 days
CCCCCCCCCC(=O)O		healthy male humans, serum	oral, dose not given, insulin tablet, with: sodium caprate 550 mg	time to baseline serum level	~2 h
O=C1c2cccc3c2[C@H](CCC3)CN1[C@@H]1CN2CCC1CC2		human, plasma	oral, dose not given	time to first quantifiable plasma level	≤ 1 h
CC[C@H](C)[C@H](NC(=O)[C@H](CCC(N)=O)NC(=O)[C@H](Cc1c[nH]cn1)NC(=O)[C@H](C)NC(=O)[C@H](CC(C)C)NC(=O)[C@H](CCCCN)NC(=O)[C@H](CCC(N)=O)NC(=O)[C@@H](NC(=O)[C@@H](NC(=O)[C@@H]1CSSC[C@H](NC(=O)CNC(=O)[C@H](Cc2ccccc2)NC(=O)[C@H](CO)NC(=O)[C@H](CCCNC(=N)N)NC(=O)[C@H](CC(C)C)NC(=O)CNC(=O)[C@H](CCC(N)=O)NC(=O)[C@H](Cc2ccccc2)NC(=O)[C@H](CC(N)=O)NC(=O)[C@H](CC(N)=O)NC(=O)[C@H](CCSC)NC(=O)[C@H](CO)NC(=O)[C@H](CCC(N)=O)NC(=O)[C@H](CCCNC(=N)N)NC(=O)[C@@H](N)Cc2ccc(O)cc2)C(=O)N[C@@H](CCCNC(=N)N)C(=O)N[C@@H](Cc2ccccc2)C(=O)NCC(=O)N[C@@H]([C@@H](C)O)C(=O)N1)[C@@H](C)O)C(C)C)C(=O)N[C@@H](Cc1ccc(O)cc1)C(=O)N[C@@H](CCC(N)=O)C(=O)N[C@@H](Cc1ccccc1)C(=O)N[C@H](C(=O)N[C@@H](CC(=O)O)C(=O)N[C@@H](CCCCN)C(=O)N[C@@H](CC(=O)O)C(=O)N[C@@H](CCCCN)C(=O)N[C@@H](CC(=O)O)C(=O)N[C@@H](CC(N)=O)C(=O)N[C@H](C(=O)N[C@@H](C)C(=O)N1CCC[C@H]1C(=O)N[C@@H](CCCNC(=N)N)C(=O)N[C@@H](CO)C(=O)N[C@@H](CCCCN)C(=O)N[C@H](C(=O)N[C@@H](CO)C(=O)N1CCC[C@H]1C(=O)N[C@@H](CCC(N)=O)C(=O)NCC(=O)N[C@@H](Cc1ccc(O)cc1)C(N)=O)[C@@H](C)CC)C(C)C)[C@@H](C)O		human, Crohn's disease, plasma	intravenous infusion, 10 or 15 ng/kg/min, 8 h infusion	time to return to baseline	≤ 2 h
C[C@@H]1CCC[C@H](n2cnc(-c3cc(Cl)ccc3-n3cc(Cl)nn3)cc2=O)c2cc(ccn2)-c2c(cnn2C(F)F)NC1=O		healthy human, plasma	20 to 500 mg once daily	time to steady state	3 dosing days
O=C(NCCN1CCCC1)c1cc(-c2ccc(CN3CCOCC3)cc2)nc2ccc(F)cc12		human, whole blood	oral, 400 mg or higher, threshold 10 ng/mL	time above parasiticidal level	≥ 7 days
O=C(c1ccc(F)c(F)c1Nc1ccc(I)cc1F)N1CC(O)([C@@H]2CCCCN2)C1		human	oral, daily dosing	time to steady state	~10 days
O=C(CCCCCCNC(=O)c1cnc(N(c2ccccc2)c2ccccc2)nc1)NO		human patients, plasma	oral, 160 mg, LLOQ 0.50 ng/mL	time above LLOQ	24 h
COc1cccc(-c2ccc(NC(=O)C3=C(C(=O)O)CCC3)c(F)c2)c1		male humans, plasma	oral, once daily, 5 half-lives	time to 97% of steady state	≥ 9000 min
CC[C@H](C)[C@@H]1NC(=O)[C@H](Cc2ccc(O)cc2)NC(=O)[C@@H](N)CSSC[C@@H](C(=O)N2CCC[C@H]2C(=O)N[C@@H](CC(C)C)C(=O)NCC(N)=O)NC(=O)[C@H](CC(N)=O)NC(=O)[C@H](CCC(N)=O)NC1=O	radioimmunoassay	human, lumbar CSF	intranasal, 24 IU	time to significant level	≤ 75 min
CC(=O)O[C@H]1C(=O)[C@@]2(C)[C@H]([C@H](OC(=O)c3ccccc3)[C@]3(O)C[C@H](OC(=O)[C@H](O)[C@@H](NC(=O)c4ccccc4)c4ccccc4)C(C)=C1C3(C)C)[C@]1(OC(C)=O)CO[C@@H]1C[C@@H]2O		human patients, plasma	intravenous, 100 mg/m2, 3 h infusion, cycle 1, concentration above 0.05 µM, no protease inhibitors	time above plasma concentration	6.7 h
C[C@H]1CNCCCN1S(=O)(=O)c1cccc2cncc(F)c12	conjunctival hyperaemia	human male	topical ocular, 1 drop per eye twice daily	time to peak hyperaemia	15 min

Repeated from above:
Compound	assay	system	conditions	quantity	result
CC[C@H](C)[C@H](NC(=O)[C@H](CCC(N)=O)NC(=O)[C@H](Cc1c[nH]cn1)NC(=O)[C@H](C)NC(=O)[C@H](CC(C)C)NC(=O)[C@H](CCCCN)NC(=O)[C@H](CCC(N)=O)NC(=O)[C@@H](NC(=O)[C@@H](NC(=O)[C@@H]1CSSC[C@H](NC(=O)CNC(=O)[C@H](Cc2ccccc2)NC(=O)[C@H](CO)NC(=O)[C@H](CCCNC(=N)N)NC(=O)[C@H](CC(C)C)NC(=O)CNC(=O)[C@H](CCC(N)=O)NC(=O)[C@H](Cc2ccccc2)NC(=O)[C@H](CC(N)=O)NC(=O)[C@H](CC(N)=O)NC(=O)[C@H](CCSC)NC(=O)[C@H](CO)NC(=O)[C@H](CCC(N)=O)NC(=O)[C@H](CCCNC(=N)N)NC(=O)[C@@H](N)Cc2ccc(O)cc2)C(=O)N[C@@H](CCCNC(=N)N)C(=O)N[C@@H](Cc2ccccc2)C(=O)NCC(=O)N[C@@H]([C@@H](C)O)C(=O)N1)[C@@H](C)O)C(C)C)C(=O)N[C@@H](Cc1ccc(O)cc1)C(=O)N[C@@H](CCC(N)=O)C(=O)N[C@@H](Cc1ccccc1)C(=O)N[C@H](C(=O)N[C@@H](CC(=O)O)C(=O)N[C@@H](CCCCN)C(=O)N[C@@H](CC(=O)O)C(=O)N[C@@H](CCCCN)C(=O)N[C@@H](CC(=O)O)C(=O)N[C@@H](CC(N)=O)C(=O)N[C@H](C(=O)N[C@@H](C)C(=O)N1CCC[C@H]1C(=O)N[C@@H](CCCNC(=N)N)C(=O)N[C@@H](CO)C(=O)N[C@@H](CCCCN)C(=O)N[C@H](C(=O)N[C@@H](CO)C(=O)N1CCC[C@H]1C(=O)N[C@@H](CCC(N)=O)C(=O)NCC(=O)N[C@@H](Cc1ccc(O)cc1)C(N)=O)[C@@H](C)CC)C(C)C)[C@@H](C)O		human, Crohn's disease, plasma	intravenous infusion, 10 or 15 ng/kg/min, 8 h infusion	time to return to baseline	≤ 2 h
C[C@@H]1CCC[C@H](n2cnc(-c3cc(Cl)ccc3-n3cc(Cl)nn3)cc2=O)c2cc(ccn2)-c2c(cnn2C(F)F)NC1=O		healthy human, plasma	20 to 500 mg once daily	time to steady state	3 dosing days
